Published values collected from several papers.
Every numbered part comes from another study and shows a few of its results, in no order.

Block 1 — technique: protein binding microarray; molecule type: double-stranded DNA, one strand shown; medium: in vitro; tested at: not given; reference: not given; direction: higher = stronger binding
Target: Histone acetyltransferase KAT6A, both winged helices, GST fusion (KAT6A, Homo sapiens, UniProt Q92794, residues 1-181)
Setting: 8-mer, flanks averaged, mean of 2 arrays, mostly near background
Construct (chain): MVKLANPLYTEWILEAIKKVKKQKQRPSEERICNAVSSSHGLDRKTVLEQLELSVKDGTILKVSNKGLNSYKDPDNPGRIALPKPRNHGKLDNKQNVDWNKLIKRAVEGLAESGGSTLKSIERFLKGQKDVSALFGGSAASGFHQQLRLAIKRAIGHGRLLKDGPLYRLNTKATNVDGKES
| Sequence | E-score |
| --- | --- |
| GCCTAGCA | -0.0136 |
| CAGATCGG | 0.106 |
| CTTGTGAC | 0.0623 |
| GGTACCTA | -0.14 |
| CCCCAGCG | 0.0615 |
| ATCCAGAT | -0.102 |
| ATCATTAC | -0.0527 |
| TCATGGCA | -0.018 |
| ATTACGCC | 0.0884 |
| GATGTACC | -0.0821 |
| TTTTAAAA | 0.02 |
| CTTATGAA | -0.0133 |
| TCTGGAAA | -0.117 |
| GAGTTAGC | -0.132 |
| CAAGATTA | -0.196 |
| ATCCCCTC | -0.183 |
| AGATACTA | -0.0586 |
| CGTTATTC | 0.0226 |
| GAAAAGGC | -0.0123 |
| CGACGACA | -0.0673 |
| GTTTTTGA | -0.0571 |
| GATATTCA | -0.0653 |
| AAGAGACT | -0.153 |

Block 2 — technique: aptamer microarray, sandwich; molecule type: DNA with 2'F-ANA; medium: in vitro; tested at: 200 nM; added: Cy3 exosite-II aptamer, 400 nM; direction: higher = stronger binding; sequence: GGTTGGTGTGGTTGG
Target: Prothrombin, mature alpha-thrombin (F2, Homo sapiens, UniProt P00734)
Setting: whole 15-mer aptamer, many near background
| Modification | mean fluorescence intensity |
| --- | --- |
| 2'F-ANA at 1 4 6 10 | 71.9 a.u. |
| 2'F-ANA at 1 2 4 5 7 8 12 | 113 a.u. |
| 2'F-ANA at 2 3 4 6 7 10 14 15 | 163 a.u. |
| 2'F-ANA at 2 3 4 5 10 12 | 55.3 a.u. |
| 2'F-ANA at 3 4 6 8 9 11 14 | 240 a.u. |
| 2'F-ANA at 2 4 6 7 8 10 13 14 15 | 57.7 a.u. |
| 2'F-ANA at 3 9 10 13 14 15 | 380 a.u. |
| 2'F-ANA at 2 4 5 7 9 13 15 | 51.3 a.u. |
| 2'F-ANA at 1 2 4 5 8 10 11 13 14 15 | 48 a.u. |
| 2'F-ANA at 1 3 9 10 11 | 121 a.u. |
| 2'F-ANA at 11 13 14 | 204 a.u. |
| 2'F-ANA at 1 2 5 9 10 15 | 62.3 a.u. |
| 2'F-ANA at 4 5 6 7 8 10 12 14 15 | 43.5 a.u. |
| 2'F-ANA at 2 4 6 7 8 11 13 14 | 87.8 a.u. |
| 2'F-ANA at 1 3 4 6 8 10 13 | 55.6 a.u. |
| 2'F-ANA at 1 2 3 4 5 6 8 12 14 15 | 66.2 a.u. |
| 2'F-ANA at 1 4 5 7 8 9 14 | 59.7 a.u. |
| 2'F-ANA at 3 7 8 10 11 12 15 | 649 a.u. |

Block 3 — technique: RNA Bind-n-Seq; molecule type: RNA; medium: in vitro; tested at: 200 nM; setting: whole 134-nt RNA, ends assumed; added: 150 mM KCl; reference: input library; direction: higher = stronger binding
Target: Fragile X messenger ribonucleoprotein 1, C-terminal low-complexity region (Fmr1, Mus musculus, UniProt P35922)
| Sequence | log2 enrichment |
| --- | --- |
| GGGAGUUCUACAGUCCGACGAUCCAAGUCCUGUGCUACACAUCGUAUGUACCGAAUCGGUUUGGGUUUGGGGUUUGGGAAAGUAUUAUGUUACGCCGUUCGGAUCUGCACUUCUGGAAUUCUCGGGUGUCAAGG | -0.107 |
| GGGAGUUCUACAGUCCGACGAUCUGUGCUACACAUCGUAUGUACCGAAUCGGGGUUUUUUUGGGGUUUUUUUGGGGUUUUUUUGGAAAGUAUUAUGUUACGCCGUUCGGAUCUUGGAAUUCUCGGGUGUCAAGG | 0.14 |
| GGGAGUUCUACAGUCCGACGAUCCAAGUCCUGUGCUACACAUCGUAUGUACCGAAUCGGGGCCCGGGCCCGGGCCCGGAAAGUAUUAUGUUACGCCGUUCGGAUCUGCACUUCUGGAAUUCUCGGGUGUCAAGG | -1.47 |
| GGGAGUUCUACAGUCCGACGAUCACCAUGCAGGUGGGCAUCUUUGGGAAGGGGGGCAAGGGGGGGAUAGGGAGGGGGGUAACACUUUGGGAACAGGUGGUCCCAGGUCGUUUCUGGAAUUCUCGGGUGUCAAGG | 0.546 |
| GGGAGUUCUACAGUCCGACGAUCACCAUGCAGGUGGGCAUCUUUGGGAAGUGGGGCAAGGGGGGGAUAGGGAGGGGGGUAACACUUUGGGAACAGGUGGUCCCAGAAAGUUUCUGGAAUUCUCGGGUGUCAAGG | 0.586 |
| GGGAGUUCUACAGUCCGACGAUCUGGCCCUGGUGGCAUGCGGGGAGGAAGAGGUGGCCUCAUGGAUCGUGGUGGCCCCGGUGGAAUGUUCAGAGGUGGCCGUGGUGGAGACAGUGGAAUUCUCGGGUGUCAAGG | 0.00528 |
| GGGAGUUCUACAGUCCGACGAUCAGUCCUGUGCUACACAUCGUAUGUACCGAAUCGGGGAAAAAAAGGGGAGGGGAGGGGAAAGUAUUAUGUUACGCCGUUCGGAUCUGCACUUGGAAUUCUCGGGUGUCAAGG | 0.653 |
| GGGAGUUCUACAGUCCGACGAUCUGUGCUACACAUCGUAUGUACCGAAUCGGGGUUUUUUUGGGGUUUUUUUGGGGAAAAAGGGGAAAGUAUUAUGUUACGCCGUUCGGAUCUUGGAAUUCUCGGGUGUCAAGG | 0.203 |
| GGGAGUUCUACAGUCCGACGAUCUGUUGUCUGGGUUUGGGGGUCGAGUAGAUGCGGGGCAGCCGGAGCUGUUGACGGAAAGGAGUAGCCCCAAAGGAGGGCAUGUGAAGUCGCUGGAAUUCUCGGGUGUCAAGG | -0.164 |
| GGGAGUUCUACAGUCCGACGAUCUCCUGUGCUACACAUCGUAUGUACCGAAUCGGGCCCCCGGGCCCCCGGGGCCCCCGGGGAAAGUAUUAUGUUACGCCGUUCGGAUCUGCAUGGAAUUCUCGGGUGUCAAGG | -0.885 |

Block 4 — technique: RNA Bind-n-Seq; molecule type: RNA; medium: in vitro; tested at: 365 nM; reference: no-protein control; direction: higher = stronger binding
Target: RNA binding protein fox-1 homolog 2, RRM domain, GST-SBP tag (RBFOX2, Homo sapiens, UniProt O43251-10, residues 100-194)
Setting: natural RNA segment, single round, ends assumed
Residues (chain): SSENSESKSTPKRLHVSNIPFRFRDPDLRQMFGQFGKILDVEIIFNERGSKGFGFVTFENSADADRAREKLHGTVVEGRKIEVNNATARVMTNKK
| Sequence | RBNS enrichment (R) |
| --- | --- |
| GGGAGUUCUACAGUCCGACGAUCGGACUGGUCCCGGGUGCCUUCCAAGCACAGUCUCCAUGCUCCCAGAUUCUCGACCUUCCCCCGGCCCGGGAGGUGCAGCCUGCGUCUGCCUCUGUCGUGUGUGCUGAUUUUGGAAUUCUCGGGUGCCAA | 0.316 |
| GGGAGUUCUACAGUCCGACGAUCUCUUUGAUACUCCUUGAAAAUUAAAACUAAGUACACCCUAUUGCUCUUCAGCUCCCAGAAACUUACGCUUCCUCAUUUCUCAUAGCAUUUUAACUAGUGAACAUAAGGACUGGAAUUCUCGGGUGCCAA | 0.875 |
| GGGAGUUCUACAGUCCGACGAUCGUCUUUUUACAAGAUGAGCUUUUACUCUCUUCCAGGAAGUAGCUUUUUUUCUAGCUGAGAAUUAAUAAUGGUCUUUCUCUUUGGAAGUCAUAUCAAAGUAUAAUUGAUGGUGGAAUUCUCGGGUGCCAA | 0.376 |
| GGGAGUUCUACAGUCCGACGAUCCUUGAAAGCAUCUGUUUGAGGGAAAGGUCUCUGGGCAAGCAAGUGGUUAUUUGGAUUGCUUGCUUCCCUUUUUCCACCUGGGACAUUGUAAUCAUAAAAUAACAGUAAAUUGGAAUUCUCGGGUGCCAA | 0.336 |
| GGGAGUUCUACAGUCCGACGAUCCUAUGAAAUGUCUUUUUUUCUUUUUGGUAUUUUACAUUAUUCACAUUUUAGAAUAACAAGAACACCAAGAAUUACCCCUAAAACAGAGACCCUGUAUUUAAUCUACUUUGUGGAAUUCUCGGGUGCCAA | 0.409 |
| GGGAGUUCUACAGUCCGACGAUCUGGCAACUGAGAUGGGAUGGAUCCAUUUAAUUAGAGAACGGUGAAAUCUUUCUAGUUGGGCUUUUUGAUUUAUUUUAAAUGGAUAUUGCUCUUUGACUUGGUUUCUUCUUUGGAAUUCUCGGGUGCCAA | 0.507 |
| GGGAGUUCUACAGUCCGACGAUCCAACAUCAUACUUCACUUACUUGUUAAUUUACUUUUUACCCUUAUUCUAAGAGCAAGUUGAGUUGAACUGAAUCUUCCUUGUCUUAGUAACAAUGUAUAAAUAGUGGCUUUGGAAUUCUCGGGUGCCAA | 0.576 |
| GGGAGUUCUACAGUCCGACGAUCCCACCAGAGGGAAGAGUCUCUUGUGGGUGUGUUGGGUCUCCUAAUAAGAUGACUCUCCAUCUAGAUCAAGUCUUAGCAUCAUACGCAUCACUGUGAACGGAGGGAAGUGCUGGAAUUCUCGGGUGCCAA | 0.455 |
| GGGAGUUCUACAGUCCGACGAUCGCCCUGCAGCCACAGUGUUCUGUUGGAGAAACUUGGGGAAGUGUUUUCUGAACCAGUUCUUUUUCUUGGGGUAGAGCGUGAAAUCCAGACCUGUUUUUGAAAGGACAGCAUGGAAUUCUCGGGUGCCAA | 0.438 |
| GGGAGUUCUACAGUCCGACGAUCGCUCAAAGGCACCUUUGCUUUUGUGAACUCGUUCACCCUAUCCUGUCUCCCCCAGGAUUGCCCCCCUCUCCCCUCACCCCCACAGCAUGCUGUAUUAGAUGCUCACAUUCUGGAAUUCUCGGGUGCCAA | 1.68 |
| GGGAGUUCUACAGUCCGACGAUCACCUGCUUCUGUGACUUCGUUCUUUUUGUUUUCAAGGGGUGAAAACCCCCUGUCAGAAGGUACCGUCGCAUAUCCAUGUGAAGCAGACGACUCCCUGCUUGCCGCACACAUGGAAUUCUCGGGUGCCAA | 0.633 |
| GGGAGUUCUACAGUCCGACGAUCCUGCUUACAACACUGGGAGAUGUGUUUGCCAGUAAGUUGCUCAUCACAAGAGCACCAGACUUGGGGGUGUAAUCUCCGGCAACUUGCAUGCCCUCUGAAAGAAGGGUUUUUGGAAUUCUCGGGUGCCAA | 1.4 |

For quick reference, copied from above (block 2):
| Modification | mean fluorescence intensity |
| --- | --- |
| 2'F-ANA at 3 4 6 8 9 11 14 | 240 a.u. |
| 2'F-ANA at 2 4 6 7 8 10 13 14 15 | 57.7 a.u. |
| 2'F-ANA at 3 9 10 13 14 15 | 380 a.u. |
| 2'F-ANA at 2 4 5 7 9 13 15 | 51.3 a.u. |
| 2'F-ANA at 1 2 4 5 8 10 11 13 14 15 | 48 a.u. |
| 2'F-ANA at 1 3 9 10 11 | 121 a.u. |
| 2'F-ANA at 11 13 14 | 204 a.u. |
| 2'F-ANA at 1 2 5 9 10 15 | 62.3 a.u. |
